Experimental data pooled from the literature.
Lines come from different studies, so protocols differ.
Cell line: RXF 393

CC(=O)c1cccc(NC2C(N)C(NC(=O)N(C)C)(C(C)O)C(O)C2(O)COC(=O)c2c(C)cccc2O)c1 (centres unmarked) gave a GI50 of 64 nM (cell growth or viability, SRB).
CC/C=C\C/C=C\C/C=C\C/C=C\C/C=C\C/C=C\CCC(=O)Nc1ccn(C2OC(CO)C(O)C2(F)F)c(=O)n1 (centres unmarked) has a TGI of 15100 nM (NCI60 screen).
For C1=[N+]2CCCC[N+]3=Cc4ccc5[n]4[Au-]23[n]2c1ccc2-c1nc2ccccc2nc1-5.F[P-](F)(F)(F)(F)F, the IC50 was 1300 nM (cell growth).
COc1cc(CNC(=O)C[C@H](C)CCC=C(C)C)ccc1OCc1cn(-c2cccc([N+](=O)[O-])c2)nn1 has a growth percent of 83% (SRB; 10 µM, 48 h).
For O=C1Nc2ccccc2/C1=N\Nc1nnc2n1N=C(c1ccc(Cl)cc1)CS2, the inhibition was 30% (cell growth or viability, SRB; 10 µM).
The growth percent of COc1cc(CNC(=O)C[C@H](C)CCC=C(C)C)ccc1OCc1cn(-c2ccc(C#N)cc2)nn1 is reported as 49.4% (SRB; 10 µM, 48 h).
With CC(=O)OC[C@H]1O[C@@H](Sc2sc(C(=O)c3ccc(Br)cc3)c(N)c2-c2nc3ccccc3s2)[C@H](OC(C)=O)[C@@H](OC(C)=O)[C@H]1OC(C)=O the growth was 115% (SRB; 10 µM, 48 h; relative to: untreated).
COc1cc(CNC(=O)C[C@H](C)CCC=C(C)C)ccc1OCc1cn(-c2ccc(Br)cc2)nn1 gave a growth percent of 61.8% (SRB; 10 µM, 48 h).
With COc1ccc(C2=Nn3c(NN=C4C(=O)N(C)c5ccc(Br)cc54)nnc3SC2)cc1 the inhibition was 12% (cell growth or viability, SRB; 10 µM).
For CC(=O)OC[C@H]1O[C@@H](Sc2sc(C(=O)c3ccc(C)cc3)c(N)c2-c2nc3ccccc3s2)[C@H](OC(C)=O)[C@@H](OC(C)=O)[C@H]1OC(C)=O, the growth was 96.3% (SRB; 10 µM, 48 h; relative to: untreated).
CC(=C(c1ccc(O)cc1)c1ccc(Cl)cc1)c1ccc(Cl)cc1 gave a GI50 of 500 nM (cell growth or viability).
The GI50 of CC(=O)OCC1(O)C(Nc2cccc(C(C)=O)c2)C(N)C(NC(=O)N(C)C)(C(C)OC(C)=O)C1(C)O (centres unmarked) is reported as 610 nM (cell growth or viability, SRB).
COc1cc(CNC(=O)C[C@H](C)CCC=C(C)C)ccc1OCc1cn(-c2cccc(Cl)c2)nn1 gave a growth percent of 79.9% (SRB; 10 µM, 48 h).
CCC(=C(c1ccc(Cl)cc1)c1ccc(OCCCN(C)C)cc1)c1ccc(OC)cc1 has a GI50 of 1160 nM (cell growth or viability).

Repeated from above:
The GI50 of CC(=O)OCC1(O)C(Nc2cccc(C(C)=O)c2)C(N)C(NC(=O)N(C)C)(C(C)OC(C)=O)C1(C)O (centres unmarked) is reported as 610 nM (cell growth or viability, SRB).
